Results gathered from unrelated publications.
Numbered parts are unrelated; each lists some results of a single study. Substitutions count along the parent as printed.

Sample 1 — technique: competition protein-binding microarray; molecule type: double-stranded DNA, one strand shown; medium: in vitro; concentration: 2 µM; added: Cbf1 competitor, 0.05 µM; direction: higher = stronger binding; all sequences stand within: … GTCTTGATTCGCTTGACGCTGCTG
Target: Phosphate system positive regulatory protein PHO4, full length, GST-tagged (PHO4, Saccharomyces cerevisiae, UniProt P07270, residues 1-312)
Notes: whole 60-bp probe, lowest competitor level
Construct (chain): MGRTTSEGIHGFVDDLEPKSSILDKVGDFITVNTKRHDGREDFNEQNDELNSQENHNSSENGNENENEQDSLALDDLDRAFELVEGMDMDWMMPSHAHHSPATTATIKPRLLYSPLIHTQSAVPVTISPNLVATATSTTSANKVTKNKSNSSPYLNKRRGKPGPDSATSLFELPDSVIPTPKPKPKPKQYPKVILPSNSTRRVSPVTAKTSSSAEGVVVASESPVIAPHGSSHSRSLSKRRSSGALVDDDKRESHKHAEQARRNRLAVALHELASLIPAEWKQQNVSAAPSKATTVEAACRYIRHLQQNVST
Oligonucleotide	fluorescence intensity [a.u.]
TATGGCAAAAATCGAAACGTGGGTAAGTTTCGAGCC	13800
TTCGAAATAGATTCCCAAAAAAAAAAAAAGGGATAT	2540
CTTCTGTAAATTTGCCTCGTGGGTGGACGCGCCCCG	12000
ATTGATGATGGTTATCATGCTTGATAATAGACTTAA	4590
CTATTCAAAAGGTTCCACGTTGGCTGTCTACTGACT	11900
CTAACGAAGGTTTGGCCAGTGGGTGACAAGCCAAGT	3670
TCGTGCGATGTTTTCATCGAATCCTCCAAGCAATGA	4730
GAAAATGCTAATGCCCATGTGCGACTCATTCCGTTA	11300
GTCTTGTCTCATTGCTGCGTGGGTGTCCCCACTTCA	8090
CGATTCGCTGCTCAACACATGGAGGGCCCAAAGACA	7370
TGCGCAACAACTTGACTGGTGGGTGTATGTCTAGAA	4650
AATGAGCAAAACTGGCACGATCCTGAAAAGAGCACT	8910
TCCCTGTTTATTTCACACGTCGCTTTGACTGCATAC	5740
TACCTTAACCCCGGCACCGTGCGATGCAGATCCGCC	8030
AAAGCGGTAATTTGCCTTGTGGGTGCAGATATCTAT	5840
AAATTACTAAGTTGGCGCGTGGGTGACGCCGTATGA	10500
AAATTACTAAGTTGTTATGTGGGTGACGCCGTATGA	4230
TGATGTTTTGACTGTCATGCTACAAATGTTGGATGA	5390
CTAACGAAGGTTTGCGGGGTGGGTGACAAGCCAAGT	4590
CTTGCAGGTTAGGTTTTCGTGCTAAGATGAGCAGAT	4640
CTTCTGTAAATTTGCTATGTGGGTGGACGCGCCCCG	4780
CGGGGTTAAGTTTGTGGCGTGGGTGGCTTGCAGCAG	6950
ATCAGATCAAACTGGCACGTGCCAGATTTGGTTTAG	17800
CATACCCAACCTTGACATGTGGGTGAAGATATTTGT	13600
CCGGGAGTTTTTCCGCACGCTAAAATCAAGACTCAA	4920

Sample 2 — technique: DHFR PCA, deep sequencing; medium: yeast; added: (+)-ABA 17 µM; baseline: wild-type fitted maximum; direction: higher = stronger binding
Target: ABI1, truncated, D143A, DHFR fusion (Arabidopsis thaliana)
Notes: methotrexate growth selection, single substitutions
Parent: PYL1, truncated, DHFR fusion (Arabidopsis thaliana); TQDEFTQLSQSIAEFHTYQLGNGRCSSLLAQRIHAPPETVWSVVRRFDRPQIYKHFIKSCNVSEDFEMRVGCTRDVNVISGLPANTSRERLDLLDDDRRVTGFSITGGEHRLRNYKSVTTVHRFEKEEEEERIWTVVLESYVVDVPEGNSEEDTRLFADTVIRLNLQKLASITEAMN; partner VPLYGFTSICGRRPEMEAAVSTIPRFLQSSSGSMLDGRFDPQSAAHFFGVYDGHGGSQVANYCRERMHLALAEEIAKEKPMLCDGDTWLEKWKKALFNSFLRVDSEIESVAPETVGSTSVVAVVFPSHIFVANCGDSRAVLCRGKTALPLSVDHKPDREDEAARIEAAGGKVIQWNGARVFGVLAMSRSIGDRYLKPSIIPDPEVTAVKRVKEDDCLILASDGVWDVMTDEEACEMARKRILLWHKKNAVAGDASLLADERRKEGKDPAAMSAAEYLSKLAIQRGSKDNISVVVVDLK
Change	relative binding score
L112P	16.6%
I172A	41.6%
K116F	5.55%
F124H	71.7%
S171N	89.7%
R74P	-7.72%
V136W	63.8%
L164N	67.5%
G23M	65.3%
T119P	-2.35%
E4K	69.5%
K58Q	76.3%
T17M	59.4%
S26D	22.3%
N165C	-11.2%
S59C	68.4%
V62F	55.5%
E14Q	78.3%
R24M	77.9%
G107K	15.7%
E139M	53.5%
T106K	44.6%

Sample 3 — technique: protein-binding microarray; molecule type: double-stranded DNA, one strand shown; medium: in vitro; concentration: 940 nM top; notes: 60-bp whole probe; added: salmon DNA 0.4 mg/ml; baseline: random background probes; direction: higher = stronger binding; all sequences stand within: GCCTAGCAC … GTCTTGATTCGCTTGACGCTGCTG
Target: Interferon regulatory factor 5, full length, phosphomimetic (IRF5, Homo sapiens, UniProt Q13568-2, residues 1-514, S451D/S453D/S456D/S462D)
Oligonucleotide	fitted relative affinity
TCACACCAGAGGGCGCTGTGGTGCTAG	-0.287 z-score
TTAGGTCTCGGACTGGGTTTGTGCTAG	0.874 z-score
GACCTTCACCTCTCTGTCCCCGTGCTA	1.02 z-score
TCATGGTTGAACATGAAACTGTGCTAG	-0.391 z-score
TCACCCCTCTCTTTCCAACTGTGCTAG	1.02 z-score
GACTATTTCGGGTTTCGAGACGTGCTA	2.6 z-score
TTAGATTTCGGGATTGGATTAGTGCTA	0.658 z-score
TTAGGACTGGGTCTCCGTTAGTGCTAG	-0.384 z-score
GCACGTGACTGTTTCCCAATGTGCTAG	-0.207 z-score
GACGGTTCCAGTTTCGAGACGTGCTAG	4.28 z-score
AGTCATCTCCAAAGTCAGCCAGTGCTA	0.15 z-score
TTAGGTTTCAGTATCGGTTAGTGCTAG	8.52 z-score
TTAGGACTGGACTTGCGGTTAGTGCTA	-0.315 z-score
GACGGTCTTGGTTTCGGGACGTGCTAG	4.92 z-score
GAAGATTTCAGTATCGAGACGTGCTAG	2.44 z-score
GACGCTTTCGACTATCGGGACGTGCTA	2.82 z-score
TCACCTGAATGAAAACATACTGTGCTA	0.185 z-score
GACGATCTCAGACTGAAGACGTGCTAG	-0.302 z-score
TCAAAAATGAATATTAGACTGTGCTAG	-0.471 z-score
GACGATATCGGGTTTCGAAACGTGCTA	3.72 z-score
CTAGATTTCGGGACTGGATTAGTGCTA	0.403 z-score
AACGGACTGCTTCTCCTGACGTGCTAG	-0.367 z-score
TCAGTACTTTCTATCTCACTGTGCTAG	2.45 z-score
GACGGTTTCGACACTGAGGACGTGCTA	6.91 z-score

Sample 4 — target: CCNE2, cyclin fold, Cln2 fusion (human); technique: yeast growth competition, sequencing; medium: yeast; notes: weak parent motif; baseline: not given; direction: higher = stronger binding
Parent: LLGL2 docking peptide (human); KSLKKSLRQSFRR; partner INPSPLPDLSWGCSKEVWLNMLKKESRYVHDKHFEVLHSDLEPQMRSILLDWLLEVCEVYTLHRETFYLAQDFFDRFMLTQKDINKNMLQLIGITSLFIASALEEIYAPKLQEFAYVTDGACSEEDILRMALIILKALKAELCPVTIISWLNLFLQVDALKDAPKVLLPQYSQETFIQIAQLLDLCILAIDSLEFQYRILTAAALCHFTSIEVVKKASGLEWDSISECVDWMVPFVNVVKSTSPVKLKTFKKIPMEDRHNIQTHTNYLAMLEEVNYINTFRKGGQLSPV
Change	normalised enrichment score
KSLKKSLRQSFRA [R13A]	0.566
KSLKASLRQSFRR [K5A]	0.563
KSLAKSLRQSFRR [K4A]	0.665
KSLKKALRQSFRR [S6A]	-0.00745
KSLKKSLRQSFAR [R12A]	0.699
KSLKKSLRQSARR [F11A]	0.0352
KSLKKSLRQAFRR [S10A]	0.463

Sample 5 — target: CREB3L2, bZIP domain (human); technique: DHFR protein complementation; medium: yeast; baseline: wild-type JUN-FOS pair; direction: higher = stronger binding
Notes: single substitutions, most at no-binding floor
Parent: JUN, bZIP domain (human); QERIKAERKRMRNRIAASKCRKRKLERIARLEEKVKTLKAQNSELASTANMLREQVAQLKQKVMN; partner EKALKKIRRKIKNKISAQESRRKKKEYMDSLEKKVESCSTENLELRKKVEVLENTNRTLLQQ
Change	binding fitness
E33W	-1.49 natural log
I28V	-1.24 natural log
K34V	-1.51 natural log
E44A	-1.4 natural log
A57K	-1.44 natural log
A46E	-1.44 natural log
A29G	-1.38 natural log
A49D	-1.48 natural log
L38K	-1.56 natural log
V56S	-1.52 natural log
T37M	-1.45 natural log
S43P	-1.47 natural log
K39W	-1.44 natural log
I28H	-1.46 natural log
T48I	-1.44 natural log
K39G	-1.52 natural log
N42M	-1.34 natural log
V56Q	-1.49 natural log
T37P	-1.52 natural log
E33I	-1.57 natural log
S43Y	-1.31 natural log
E33F	-1.51 natural log
M51A	-1.32 natural log
N42W	-1.49 natural log
S43T	-1.48 natural log

Sample 6 — technique: protein binding microarray; molecule type: double-stranded DNA, one strand shown; medium: in vitro; concentration: not given; baseline: not given; direction: higher = stronger binding
Target: Histone acetyltransferase KAT6A, both winged helices, GST fusion (KAT6A, Homo sapiens, UniProt Q92794, residues 1-181)
Notes: 8-mer, flanks averaged, mean of 2 arrays, mostly near background
Residues (chain): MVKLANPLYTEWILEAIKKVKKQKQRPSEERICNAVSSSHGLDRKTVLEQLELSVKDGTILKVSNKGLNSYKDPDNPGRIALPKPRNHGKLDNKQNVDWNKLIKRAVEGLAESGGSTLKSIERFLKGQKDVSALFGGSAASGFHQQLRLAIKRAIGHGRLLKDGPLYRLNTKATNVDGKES
Oligonucleotide	E-score
GAAAGCGA	0.0667
GAATCCAA	-0.1
AAATCTGC	-0.112
AGTTCCCG	0.235
ACTAGATA	-0.022
CCTCGTTC	-0.0996
AGGCTTTC	-0.082
AGCTTCCG	0.197
AGACTCGA	0.000975
CCATTCCC	-0.105
TCCTTTAA	-0.139
AGACAACC	-0.0254
GACATCGA	0.0795
TCCGCTAA	0.204
CCCCCAGG	-0.235
GTTGTTTA	-0.151
AACGATAA	0.0374

Excerpt of the above (sample 1):
Oligonucleotide	fluorescence intensity [a.u.]
TCGTGCGATGTTTTCATCGAATCCTCCAAGCAATGA	4730
GAAAATGCTAATGCCCATGTGCGACTCATTCCGTTA	11300
GTCTTGTCTCATTGCTGCGTGGGTGTCCCCACTTCA	8090
CGATTCGCTGCTCAACACATGGAGGGCCCAAAGACA	7370
TGCGCAACAACTTGACTGGTGGGTGTATGTCTAGAA	4650
AATGAGCAAAACTGGCACGATCCTGAAAAGAGCACT	8910
TCCCTGTTTATTTCACACGTCGCTTTGACTGCATAC	5740
TACCTTAACCCCGGCACCGTGCGATGCAGATCCGCC	8030
AAAGCGGTAATTTGCCTTGTGGGTGCAGATATCTAT	5840
AAATTACTAAGTTGGCGCGTGGGTGACGCCGTATGA	10500
AAATTACTAAGTTGTTATGTGGGTGACGCCGTATGA	4230
